Results collected from several papers.
Every numbered part comes from another study and shows a few of its results, in no order.

Study 1 — technique: protein binding microarray; form: double-stranded DNA, one strand shown; medium: in vitro; concentration: not given; reference: not given; reading: higher = stronger binding
Target: Histone acetyltransferase KAT6A, winged helix 2, GST fusion (KAT6A, Homo sapiens, UniProt Q92794, residues 85-181)
Setting: 8-mer, flanks averaged, mean of 2 arrays, mostly near background
Residues (chain): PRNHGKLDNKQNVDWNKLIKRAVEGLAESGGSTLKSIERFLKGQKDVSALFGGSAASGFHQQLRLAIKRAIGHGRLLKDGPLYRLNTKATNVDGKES
With `ATGCAGTA` the E-score was 0.0304.
`CCAACCAA` gave an E-score of -0.0634.
For `GTATACCA`, the E-score was -0.0239.
For `ATCGATTA`, the E-score was -0.00598.
`ACTCCATC` has an E-score of 0.0438.
For `ATGCCACC`, the E-score was 0.0361.
With `AGCAGGGA` the E-score was -0.053.
For `CATAAATC`, the E-score was -0.00993.

Study 2 — mode: inhibitor; concentration: 20 µM
Target: Replicase polyprotein 1ab, nsp13 helicase (rep, Severe acute respiratory syndrome coronavirus 2, UniProt P0DTD1)
`CC(C)OC(=O)[C@H](C)N[P@@](=O)(OC[C@H]1O[C@@H](n2ccc(=O)[nH]c2=O)[C@](C)(F)[C@@H]1O)Oc1ccccc1` has an inhibition of 5.99%.
With `Cc1cccc(Oc2nc3c(C)cccn3c(=O)c2/C=C(\C#N)c2nc3ccccc3s2)c1` the inhibition was 6.59%.
With `COc1cccc2c1C(=O)c1c(O)c3c(c(O)c1C2=O)C[C@@](O)(/C(CO)=N/NC(=O)CCCCCN1C(=O)C=CC1=O)C[C@@H]3O[C@H]1C[C@H](N)[C@H](O)[C@H](C)O1` the inhibition was 96.6%.
The inhibition of `[2H]C([2H])([2H])C(=O)Nc1c(I)c(C(=O)O)c(I)c(C(=O)NC)c1I` is reported as -0.96%.
`O=c1n(Cl)c(=O)n(Cl)c(=O)n1Cl` gave an inhibition of 3.66%.
For `CC(C)[C@](O)(c1ccc2cc(OC(F)F)c(OC(F)F)cc2c1)c1c[nH]nn1`, the inhibition was -0.44%.
For `CSc1ccc(OCc2ncc([N+](=O)[O-])n2C)cc1`, the inhibition was 6.14%.
With `CC(C)(Oc1ccc(Cl)cc1)C(=O)N1CSCC1C(=O)O` (centres unmarked) the inhibition was -1.24%.
`CNC(=O)c1ccc2cc([C@@]3(O)CCn4cncc43)ccc2c1` gave an inhibition of 12.2%.
The inhibition of `COc1cccc(-c2cc(NCc3ccc4c(c3)OCO4)nc(N)n2)c1` is reported as 4.82%.
`Nc1cccc(CNC(=O)c2ccc(Oc3ccc(OCc4cccc(F)c4)cc3)nc2)c1` gave an inhibition of 3.48%.
The inhibition of `CC(C)c1c(NC(=O)Nc2ccc(Cl)cc2)c(=O)n(-c2ccccc2)n1C` is reported as 11.2%.
`COc1ccc2[nH]c(-c3ccccc3)c(CCNC(C)=O)c2c1` has an inhibition of -2.5%.
With `CCC[N@+]12[C@H](O)[C@@H](CC)[C@@H]3C[C@H]1[C@@H]1N(C)c4ccccc4[C@]14C[C@H]2[C@H]3[C@H]4O` the inhibition was 4.74%.
For `O=C(O)CN(CCN(CC(=O)O)CC(=O)O)CCN(CC(=O)O)CC(=O)O`, the inhibition was -1.46%.
For `CC(C)Oc1ccc(Cc2ccc(NC3=NCCN3)cc2)cc1`, the inhibition was -0.54%.
The inhibition of `C[C@@H](Oc1ccc2[nH]nc(/C=C/c3cnn(CCO)c3)c2c1)c1c(Cl)cncc1Cl` is reported as 1.51%.
With `CCOc1ccc(Cc2cc([C@@H]3O[C@H](CO)[C@@H](O)[C@H](O)[C@H]3O)ccc2Cl)cc1` the inhibition was 3.47%.
With `OC[C@@H](O)CN1CCN(c2ccccc2)CC1` the inhibition was 6.86%.
The inhibition of `CCCCCCOC(=O)CCC(=O)CN` is reported as 2.82%.
`CC(=O)N[C@@H](Cc1ccc(O)cc1)C(=O)O` gave an inhibition of -3.47%.
For `OC1(c2ccc(Cl)cc2)c2ccccc2C2=NCCN21` (centres unmarked), the inhibition was 5.42%.
`C=CC(C)(C)c1cc(/C=C/C(=O)c2ccc(O)cc2)c(OC)cc1O` has an inhibition of 1.41%.
`FC(F)(F)c1ccccc1-c1cc(C(F)(F)F)c2nc(C3=NOC4(CCCCC4)C3)[nH]c2c1` gave an inhibition of 2.06%.
With `C[C@@H](CN1CCC(Cc2ccccc2)CC1)[C@@H](O)c1ccc(O)cc1` the inhibition was 5.28%.

Study 3 — technique: protein-binding microarray; form: double-stranded DNA, one strand shown; medium: in vitro; concentration: 940 nM top; setting: 60-bp whole probe; added: salmon DNA 0.4 mg/ml; reference: random background probes; reading: higher = stronger binding; shared flanks, not repeated: GCCTAGCAC … GTCTTGATTCGCTTGACGCTGCTG
Target: Interferon regulatory factor 5, full length, phosphomimetic (IRF5, Homo sapiens, UniProt Q13568-2, residues 1-514, S451D/S453D/S456D/S462D)
`TTCACTTTAAATTAGACTTAGTGCTAG`: “fitted relative affinity” 0.407 z-score.
`TCATTTTTTTTCATCATACTGTGCTAG` — result for “fitted relative affinity”: 1.59 z-score.
`TTAGATTTAAGACTGGATTAGTGCTAG` — result for “fitted relative affinity”: -0.423 z-score.
Under “fitted relative affinity”, `TCTAGCCTCCATTTTTACCCGTGCTAG` is recorded as 0.321 z-score.
`GACGGACTGGCGTTTCGGGACGTGCTA` — result for “fitted relative affinity”: 0.258 z-score.
Under “fitted relative affinity”, `TCAGGTTCAGATATAGGACTGTGCTAG` is recorded as -0.384 z-score.
`GACGGTCTCCTATTGCTGACGTGCTAG` — result for “fitted relative affinity”: -0.0283 z-score.
`TTAGATCTCCTTCTCCTTTAGTGCTAG`: “fitted relative affinity” 0.596 z-score.

Study 4 — technique: universal PBM; form: double-stranded DNA, one strand shown; medium: in vitro; concentration: 600 nM; reading: higher = stronger binding
Target: Sal-like protein 4, full length isoform A (SALL4, Homo sapiens, UniProt Q9UJQ4, residues 1-1053)
Sequence of UniProt Q9UJQ4 (whole entry, looked up): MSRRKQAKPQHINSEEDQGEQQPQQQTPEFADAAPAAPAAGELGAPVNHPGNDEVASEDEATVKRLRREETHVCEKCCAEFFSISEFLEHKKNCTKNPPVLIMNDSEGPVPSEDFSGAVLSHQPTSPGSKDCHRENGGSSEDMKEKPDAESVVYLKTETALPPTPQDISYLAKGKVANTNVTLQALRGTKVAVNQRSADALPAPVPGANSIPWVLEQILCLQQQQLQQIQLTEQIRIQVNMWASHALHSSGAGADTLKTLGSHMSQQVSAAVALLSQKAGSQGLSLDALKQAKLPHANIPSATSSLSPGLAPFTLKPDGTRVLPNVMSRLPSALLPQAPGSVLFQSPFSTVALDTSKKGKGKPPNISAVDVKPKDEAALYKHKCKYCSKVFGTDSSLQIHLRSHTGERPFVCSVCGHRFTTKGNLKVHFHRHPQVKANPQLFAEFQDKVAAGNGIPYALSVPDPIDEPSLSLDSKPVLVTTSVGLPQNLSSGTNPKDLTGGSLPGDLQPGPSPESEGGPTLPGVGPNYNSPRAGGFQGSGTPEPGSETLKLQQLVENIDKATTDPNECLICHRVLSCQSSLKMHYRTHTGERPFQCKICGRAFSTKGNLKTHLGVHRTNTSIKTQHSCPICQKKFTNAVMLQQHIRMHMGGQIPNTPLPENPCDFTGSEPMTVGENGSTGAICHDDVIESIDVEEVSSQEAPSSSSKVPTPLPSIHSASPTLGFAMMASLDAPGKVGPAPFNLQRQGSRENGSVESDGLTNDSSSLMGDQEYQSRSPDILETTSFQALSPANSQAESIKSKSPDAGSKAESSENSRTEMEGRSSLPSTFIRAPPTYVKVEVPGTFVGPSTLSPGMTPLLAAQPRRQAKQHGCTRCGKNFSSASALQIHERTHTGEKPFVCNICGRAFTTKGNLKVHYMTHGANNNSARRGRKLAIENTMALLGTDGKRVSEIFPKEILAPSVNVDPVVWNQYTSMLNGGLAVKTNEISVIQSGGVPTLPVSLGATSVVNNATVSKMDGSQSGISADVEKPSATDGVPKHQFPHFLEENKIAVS
Setting: 8-mer, flanks averaged, mean of replicates
`CATCCAAG` has an E-score of -0.157.
For `GTTTACAA`, the E-score was 0.178.
For `GGCCAGAC`, the E-score was -0.252.
The E-score of `ATGTGGCG` is reported as -0.118.
`ACATCACG` has an E-score of 0.042.
The E-score of `CTCTCGTC` is reported as -0.0914.
With `AATATCGC` the E-score was 0.192.
With `CAGAGCCC` the E-score was -0.214.

Further values, each from its own experiment
`CCCc1nn(C)c2c(=O)[nH]c(-c3cc(S(=O)(=O)N4CCN(C)CC4)ccc3OCC)nc12` gave a GFP-positive cells of 96.5% (HEK-293T; pseudovirus infection, FDA-approved drug library screen; VSV pseudotyped with SARS-CoV-2 spike; 10 µM, 16 h; reference: vehicle-treated).

A few entries again (study 2):
For `CC(C)[C@](O)(c1ccc2cc(OC(F)F)c(OC(F)F)cc2c1)c1c[nH]nn1`, the inhibition was -0.44%.
For `CSc1ccc(OCc2ncc([N+](=O)[O-])n2C)cc1`, the inhibition was 6.14%.
With `CC(C)(Oc1ccc(Cl)cc1)C(=O)N1CSCC1C(=O)O` (centres unmarked) the inhibition was -1.24%.
